Published values of several laboratories.
Numbered parts are unrelated; each lists some results of a single study. Substitutions count along the parent as printed.
Sequence of UniProt P23975 (whole entry, looked up): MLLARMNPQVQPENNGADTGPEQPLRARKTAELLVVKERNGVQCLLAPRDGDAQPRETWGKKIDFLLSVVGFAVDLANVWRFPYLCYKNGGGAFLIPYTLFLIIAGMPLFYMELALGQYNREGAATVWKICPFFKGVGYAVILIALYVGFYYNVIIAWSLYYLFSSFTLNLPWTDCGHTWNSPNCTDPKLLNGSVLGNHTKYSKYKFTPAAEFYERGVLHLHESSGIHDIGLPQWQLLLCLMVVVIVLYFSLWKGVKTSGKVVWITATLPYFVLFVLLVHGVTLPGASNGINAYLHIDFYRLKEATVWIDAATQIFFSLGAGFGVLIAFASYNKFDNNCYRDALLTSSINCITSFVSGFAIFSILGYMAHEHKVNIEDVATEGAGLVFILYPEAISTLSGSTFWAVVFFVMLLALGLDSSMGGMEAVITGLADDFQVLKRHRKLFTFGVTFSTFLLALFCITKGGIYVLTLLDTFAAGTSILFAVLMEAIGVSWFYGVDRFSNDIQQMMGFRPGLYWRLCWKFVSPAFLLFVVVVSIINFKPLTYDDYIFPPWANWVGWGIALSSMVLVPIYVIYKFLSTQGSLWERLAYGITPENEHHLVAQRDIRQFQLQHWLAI

Series 1
Target: tungstate, free oxyanion
Method: microfluidic competitive inhibition
Matrix: in vitro, cell-free expressed
Tested at: not given
Setting: derived from inhibition constants, unchanged parent 2230 nM
Direction: lower = stronger binding
Parent: PafA, mature enzyme, eGFP fusion (Elizabethkingia meningoseptica, UniProt Q9KJX5); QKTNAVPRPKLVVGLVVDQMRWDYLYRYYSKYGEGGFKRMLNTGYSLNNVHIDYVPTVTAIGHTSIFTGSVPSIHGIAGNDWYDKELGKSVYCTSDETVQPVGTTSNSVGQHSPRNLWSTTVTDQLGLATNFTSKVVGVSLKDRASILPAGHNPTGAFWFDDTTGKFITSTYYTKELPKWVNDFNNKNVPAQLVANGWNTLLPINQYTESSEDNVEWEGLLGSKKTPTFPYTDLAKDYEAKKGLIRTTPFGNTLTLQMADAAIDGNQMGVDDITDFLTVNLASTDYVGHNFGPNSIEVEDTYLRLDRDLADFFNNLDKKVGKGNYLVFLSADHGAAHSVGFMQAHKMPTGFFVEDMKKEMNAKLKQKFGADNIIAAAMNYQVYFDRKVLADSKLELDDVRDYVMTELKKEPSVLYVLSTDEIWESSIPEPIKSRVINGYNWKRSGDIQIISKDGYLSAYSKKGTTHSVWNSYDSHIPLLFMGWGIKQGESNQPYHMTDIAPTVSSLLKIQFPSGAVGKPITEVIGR
Substitution	oxyanion analog dissociation constant
A78V	1.6 µM
S412V	2.36 µM
H75V	1.49 µM
S504V	1.93 µM
D401G	2.42 µM
L117G	1.75 µM
D355G	1.78 µM
Q487G	2.09 µM

Series 2
Target: CCNB3, cyclin fold, Cln2 fusion (human)
Method: yeast growth competition, sequencing
Matrix: yeast
Setting: strong parent motif
Reference: not given
Direction: higher = stronger binding
Parent: viral docking peptide; TSVRRALFTGGSD; partner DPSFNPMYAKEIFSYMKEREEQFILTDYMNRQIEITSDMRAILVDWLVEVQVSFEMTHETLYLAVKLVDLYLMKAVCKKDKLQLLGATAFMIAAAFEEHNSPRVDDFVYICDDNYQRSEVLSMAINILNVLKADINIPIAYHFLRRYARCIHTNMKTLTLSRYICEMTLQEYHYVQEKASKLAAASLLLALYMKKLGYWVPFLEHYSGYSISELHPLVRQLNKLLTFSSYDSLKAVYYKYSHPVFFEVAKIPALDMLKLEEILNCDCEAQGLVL
Substitution	normalised enrichment score
TSVARALFTGGSD [R4A]	0.29
TSVRRALFYGGSD [T9Y]	1.54
TSVRRALYTGGSD [F8Y]	0.2
TSVRRALFTGLSD [G11L]	1.58
TSVRRALFTGGKD [S12K]	1.05
TSWRRALFTGGSD [V3W]	0.624
TSVRRHLFTGGSD [A6H]	0.918
TSVRRALFTGGQD [S12Q]	2.25

Other studies, line by line
SMILES	target	observed	action	tested at	reference	endpoint	result
COc1ccc2c(c1)/C(=C/c1cnc[nH]1)C(=O)N2	ERBB2 (Homo sapiens, UniProt P04626)	enzyme activity	inhibitor	0.5 µM	control	remaining activity	101%
COC(=O)c1cc(N(C)C(=O)c2ccn3ncc(-c4ccc(C(=O)O)cc4)c3c2)ccc1Cl	SLC6A2 (Homo sapiens, UniProt P23975)	cell-free assay	–	–	–	IC50	> 30 µM
